Assay results gathered from unrelated publications.
Each line is one published result; not all experiments were run side by side.
Organism: Pseudomonas aeruginosa

Structure (SMILES) | assay | system | conditions | how to read | MIC
CC(=NNC(=N)N)c1nnn(-c2ccc(C#CC3(O)CCCCC3)cc2)c1C | microbial growth | ATCC10145 |  |  | 31.2 µg/mL
CC(C)=CCc1c(O)ccc2c1O[C@H]1c3cc4c(cc3OC[C@@H]21)OC(C)(C)C=C4 |  | ATCC 10145 |  |  | 128 µg/mL
CC[C@@H](C)[C@@H](NC(=O)[C@@H](C)NC(=O)[C@@H](CCCCN)NC(=O)[C@@H](CC(C)C)NC(=O)[C@@H](CC(C)C)NC(=O)[C@H](NC(=O)[C@@H](CCCCN)NC(=O)[C@@H](CC(C)C)NC(=O)[C@@H](C)NC(=O)[C@@H](CCCCN)NC(=O)[C@@H](CCCCN)NC(=O)[C@@H](CCCCN)NC(=O)[C@@H](C)NC(=O)[C@@H](CCCCN)NC(=O)[C@@H](CO)NC(=O)[C@@H](Cc1ccccc1)NC(=O)[C@H](NC(=O)[C@@H](CCCCN)NC(=O)[C@@H](CC(C)C)NC(=O)[C@@H](Cc1ccccc1)NC(=O)[C@@H](CO)NC(=O)[C@@H](CCCCN)NC(=O)[C@@H](Cc1c[nH]c2ccccc12)NC(=O)[C@@H](CCCCN)NC(C)=O)[C@H](C)O)[C@H](C)O)C(=O)N[C@H](CO)C(=O)N[C@H](CCCCN)C(N)=O | broth microdilution | PA14 | 24 h, 37 °C |  | 0.2 µM
CNC(C)C1CCC(N)C(OC2C(N)CC(N)C(OC3OCC(C)(O)C(NC)C3O)C2O)O1 (stereo not shown) | broth microdilution | SP1 clinical isolate | 18 h, 37 °C |  | 2 µM
CC(=O)N[C@H](CCCCN)C(=O)N[C@H](CC(C)C)C(=O)N[C@H](CCCCN)C(=O)N[C@H](CO)C(=O)N[C@H](CC(C)C)C(=O)N[C@H](CC(C)C)C(=O)N[C@H](CCCCN)C(=O)N[C@@H](C(=O)N[C@H](CC(C)C)C(=O)N[C@H](CO)C(=O)N[C@H](CCCCN)C(=O)N[C@H](C)C(=O)N[C@H](CCCCN)C(=O)N[C@H](CCCCN)C(=O)N[C@H](CCCCN)C(=O)N[C@H](CC(C)C)C(=O)N[C@H](CC(C)C)C(=O)N[C@H](CCCCN)C(=O)N[C@@H](C(=O)N[C@H](C)C(=O)N[C@H](CC(C)C)C(=O)N[C@H](CCCCN)C(=O)N[C@H](C)C(=O)N[C@H](CC(C)C)C(=O)N[C@H](CO)C(=O)N[C@H](CCCCN)C(N)=O)[C@H](C)O)[C@H](C)O | broth microdilution | PAK | 24 h, 37 °C |  | 1.3 µM
CCn1cc(C(=O)NCCNCCO)c(=O)c2cc(OC)c(OCc3cccc(Br)c3)cc21 |  | ATCC 27853 |  | ≥80% growth inhibition | < 0.25 µg/mL
CC(C)C[C@@H](NC(=O)[C@@H](CCCCN)NC(=O)[C@@H](CCCCNC(=O)[C@@H](CC(C)C)NC(=O)[C@@H](CCCCN)NC(=O)[C@@H](CCCCNC(=O)[C@@H](CC(C)C)NC(=O)[C@@H](CCCCN)NC(=O)[C@@H](CCCCNC(=O)[C@@H](CC(C)C)NC(=O)[C@H](N)CCCCN)NC(=O)[C@@H](CC(C)C)NC(=O)[C@H](N)CCCCN)NC(=O)[C@@H](CC(C)C)NC(=O)[C@@H](CCCCN)NC(=O)[C@@H](CCCCNC(=O)[C@@H](CC(C)C)NC(=O)[C@H](N)CCCCN)NC(=O)[C@@H](CC(C)C)NC(=O)[C@H](N)CCCCN)NC(=O)[C@@H](CC(C)C)NC(=O)[C@@H](CCCCN)NC(=O)[C@@H](CCCCNC(=O)[C@@H](CC(C)C)NC(=O)[C@@H](CCCCN)NC(=O)[C@@H](CCCCNC(=O)[C@@H](CC(C)C)NC(=O)[C@H](N)CCCCN)NC(=O)[C@@H](CC(C)C)NC(=O)[C@H](N)CCCCN)NC(=O)[C@@H](CC(C)C)NC(=O)[C@@H](CCCCN)NC(=O)[C@@H](CCCCNC(=O)[C@@H](CC(C)C)NC(=O)[C@H](N)CCCCN)NC(=O)[C@@H](CC(C)C)NC(=O)[C@H](N)CCCCN)C(N)=O | broth microdilution | PAO1 | 37 °C |  | 4 µg/mL
COc1ccc2ccc3c(c2c1)C=[N+]1C2CCCCC2[N+]2=Cc4cc(C(C)(C)C)cc(C(C)(C)C)c4[O][Au-]21[O]3.F[P-](F)(F)(F)(F)F (stereo not shown) | bacterial growth, broth microdilution | carbapenem-resistant | 24 h |  | > 20 µM
CC(C)C[C@H](NC(=O)[C@H](CC(N)=O)NC(=O)[C@H](CCCNC(=N)N)NC(=O)[C@@H](CC(C)C)NC(=O)[C@H](Cc1ccc2ccccc2c1)NC(=O)[C@H](CC(=O)O)NC(=O)[C@H](CCCCN)NC(=O)[C@@H](CC(C)C)NC(=O)[C@H](CCCNC(=N)N)NC(=O)[C@H](CCC(N)=O)NC(=O)[C@@H](NC(=O)[C@@H](CC(C)C)NC(=O)[C@H](CCCNC(=N)N)NC(=O)[C@H](CCCCN)NC(=O)[C@H](Cc1ccccc1)NC(=O)CN)C(C)C)C(=O)N[C@H](C(N)=O)C(C)C | broth microdilution | PAO1 |  |  | 12.5 µM
COc1ccc2ccc3c(c2c1)C=[N+]1C2CCCCC2[N+]2=Cc4ccc(OCCN5CCCCC5)cc4[O][Au-]21[O]3.F[P-](F)(F)(F)(F)F (stereo not shown) | bacterial growth, broth microdilution | carbapenem-resistant | 24 h |  | 10 µM
CC[P+](CC)(CC)[Au-][S][C@@H]1O[C@H](COC(C)=O)[C@@H](OC(C)=O)[C@H](OC(C)=O)[C@H]1NC(=O)C(Cl)(Cl)Cl |  | NCTC 13437 |  |  | > 328 µM
COc1c(NC(=O)c2ccc(NC(=O)c3ccc(NC(=O)[C@H](CC#N)NC(=O)c4ccc(NC(=O)/C(C)=C/c5ccc(O)cc5)cc4)cc3)c(OC)c2O)ccc(C(=O)O)c1O |  | DSM 24600 ESBL 1 |  |  | 16 µg/mL
COc1ccc2ccc3c(c2c1)C=[N+]1C2CCCCC2[N+]2=Cc4cc(C(C)(C)C)ccc4[O][Au-]21[O]3.F[P-](F)(F)(F)(F)F (stereo not shown) | bacterial growth, broth microdilution | carbapenem-resistant clinical isolate | 24 h |  | 10 µM
N=C(N)NCCC[C@@H]1NC(=O)[C@H](CCCNC(=N)N)NC(=O)[C@H](CCCNC(=N)N)NC(=O)[C@H](Cc2c[nH]c3ccccc23)NC(=O)[C@H](Cc2c[nH]c3ccccc23)NC(=O)[C@H](Cc2c[nH]c3ccccc23)NC(=O)[C@H](Cc2c[nH]c3ccccc23)NC(=O)[C@H](CCCNC(=N)N)NC1=O | broth microdilution | PAO1, TSB | overnight |  | 31.3 µM
NC[C@H]1O[C@H](O[C@H]2[C@H](OCCCCCCCCCCCCn3cc(CNc4nc(NCc5cn(CCCCCCCCCCCCO[C@@H]6[C@@H](O)[C@H](N)C[C@H](N)[C@H]6O[C@H]6O[C@H](CN)[C@@H](O)C[C@H]6N)nn5)nc(NCc5cn(CCCCCCCCCCCCO[C@@H]6[C@@H](O)[C@H](N)C[C@H](N)[C@H]6O[C@H]6O[C@H](CN)[C@@H](O)C[C@H]6N)nn5)n4)nn3)[C@@H](O)[C@H](N)C[C@@H]2N)[C@H](N)C[C@@H]1O | microbial growth, broth dilution | PAO1 |  |  | 64 µg/mL
CCn1cc[n+](CC)[c]1[Au-]([Cl])([Cl])[Cl] | broth dilution | PA7 DSM 24068 | 20 h, 37 °C |  | 74.9 µM
CC1(C)S[C@@H]2[C@H](NC(=O)[C@H](NC(=O)C3=C(O)C(c4ccccc4F)NC3=O)c3ccccc3)C(=O)N2[C@H]1C(=O)O (stereo partly shown) | broth microdilution | PAO1 | with: 2,2'-bipyridyl 30 µg/mL and CCCP 50 µg/mL |  | 12.5 µg/mL
COc1ccc2ccc3c(c2c1)C=[N+]1C2CCCCC2[N+]2=Cc4cccc(F)c4[O][Au-]21[O]3.F[P-](F)(F)(F)(F)F (stereo not shown) | bacterial growth, broth microdilution | carbapenem-resistant clinical isolate | 24 h |  | > 20 µM
CC(C)C(O)C(NC(=O)[C@H](Cc1ccc(O)cc1)NC(=O)C(Cc1ccc(O)c(Cl)c1)[N+](C)(C)C)C(=O)N[C@@H](C)C(=O)O (stereo partly shown) | CLSI broth microdilution | PAO1 |  |  | > 100 µM
CC(=O)N[C@H](CCCCN)C(=O)N[C@H](CC(C)C)C(=O)N[C@H](CCCCN)C(=O)N[C@H](CO)C(=O)N[C@H](CC(C)C)C(=O)N[C@H](CC(C)C)C(=O)N[C@H](CCCCN)C(=O)N[C@@H](C(=O)N[C@H](CC(C)C)C(=O)N[C@H](CO)C(=O)N[C@H](CCCCN)C(=O)N[C@H](C)C(=O)N[C@H](CCCCN)C(=O)N[C@H](CCCCN)C(=O)N[C@H](CCCCN)C(=O)N[C@H](CCCCN)C(=O)N[C@H](CC(C)C)C(=O)N[C@H](CCCCN)C(=O)N[C@@H](C(=O)N[C@H](CC(C)C)C(=O)N[C@H](CC(C)C)C(=O)N[C@H](CCCCN)C(=O)N[C@H](C)C(=O)N[C@H](CC(C)C)C(=O)N[C@H](CO)C(=O)N[C@H](CCCCN)C(N)=O)[C@H](C)O)[C@H](C)O | broth microdilution | PA14 | 24 h, 37 °C |  | 0.7 µM
CC(C)=CCc1cc([C@@H]2CC(=O)c3c(O)cc(O)c(CC=C(C)C)c3O2)cc(CC=C(C)C)c1O |  | ATCC 10145 |  |  | 128 µg/mL
COc1ccc2ccc3c(c2c1)C=[N+]1C2CCCCC2[N+]2=Cc4cc(C)ccc4[O][Au-]21[O]3.F[P-](F)(F)(F)(F)F (stereo not shown) | bacterial growth, broth microdilution | carbapenem-resistant | 24 h |  | > 20 µM
CN1CCC(NCCC2(Cc3ccc(Cl)cc3)CCCCC2)CC1 | microbial growth |  | 10 h |  | 200 µM
COc1ccc2ccc3c(c2c1)C=[N+]1C2CCCCC2[N+]2=Cc4ccc(C)cc4[O][Au-]21[O]3.F[P-](F)(F)(F)(F)F (stereo not shown) | bacterial growth, broth microdilution | carbapenem-resistant | 24 h |  | 10 µM
O=[N+]([O-])c1cccc(S(=O)(=O)NC[C@@H](O)[C@@H]2CCc3cc(F)ccc3O2)c1 | microbial growth |  |  |  | 18.5 µg/mL
CC[C@@H](C)[C@@H](NC(=O)[C@@H](C)NC(=O)[C@@H](CCCCN)NC(=O)[C@@H](CC(C)C)NC(=O)[C@@H](C)NC(=O)[C@H](NC(=O)[C@@H](Cc1c[nH]cn1)NC(=O)[C@@H](CC(C)C)NC(=O)[C@H](NC(=O)[C@H](NC(=O)[C@@H](CCCCN)NC(=O)[C@H](NC(=O)[C@@H](C)NC(=O)[C@@H](CO)NC(=O)[C@@H](CCCCN)NC(=O)[C@@H](Cc1ccccc1)NC(=O)[C@H](NC(=O)[C@@H](CCCCN)NC(=O)[C@@H](CC(C)C)NC(=O)[C@@H](Cc1ccccc1)NC(=O)[C@@H](CO)NC(=O)[C@@H](CCCCN)NC(=O)[C@@H](Cc1c[nH]c2ccccc12)NC(=O)[C@@H](CCCCN)NC(C)=O)[C@H](C)O)C(C)C)[C@H](C)O)C(C)C)[C@H](C)O)C(=O)N[C@H](CO)C(=O)N[C@H](CO)C(N)=O | broth microdilution | PA14 | 24 h, 37 °C |  | 1.3 µM
CC(C)C[C@H](NC(=O)[C@H](CC(N)=O)NC(=O)[C@H](CCCNC(=N)N)NC(=O)[C@@H](CC(C)C)NC(=O)[C@H](Cc1ccc2ccccc2c1)NC(=O)[C@H](CC(=O)O)NC(=O)[C@H](CCCCN)NC(=O)[C@@H](CC(C)C)NC(=O)[C@H](CCCNC(=N)N)NC(=O)[C@H](CCC(N)=O)NC(=O)[C@@H](NC(=O)[C@@H](CC(C)C)NC(=O)[C@H](CCCNC(=N)N)NC(=O)[C@H](CCCCN)NC(=O)[C@H](Cc1ccc(C(F)(F)F)cc1)NC(=O)CN)C(C)C)C(=O)N[C@H](C(N)=O)C(C)C | broth microdilution | PAO1 |  |  | 6.2 to 12.5 µM
Cc1[nH]c(=O)c(CNC(=O)c2ccc(C(F)(F)F)nc2)c2c1CCCC2 | agar double dilution | clinical isolate 17-2 |  |  | > 128 µg/mL

A few entries again:
Structure (SMILES) | assay | system | conditions | how to read | MIC
NC[C@H]1O[C@H](O[C@H]2[C@H](OCCCCCCCCCCCCn3cc(CNc4nc(NCc5cn(CCCCCCCCCCCCO[C@@H]6[C@@H](O)[C@H](N)C[C@H](N)[C@H]6O[C@H]6O[C@H](CN)[C@@H](O)C[C@H]6N)nn5)nc(NCc5cn(CCCCCCCCCCCCO[C@@H]6[C@@H](O)[C@H](N)C[C@H](N)[C@H]6O[C@H]6O[C@H](CN)[C@@H](O)C[C@H]6N)nn5)n4)nn3)[C@@H](O)[C@H](N)C[C@@H]2N)[C@H](N)C[C@@H]1O | microbial growth, broth dilution | PAO1 |  |  | 64 µg/mL
CCn1cc[n+](CC)[c]1[Au-]([Cl])([Cl])[Cl] | broth dilution | PA7 DSM 24068 | 20 h, 37 °C |  | 74.9 µM
CC1(C)S[C@@H]2[C@H](NC(=O)[C@H](NC(=O)C3=C(O)C(c4ccccc4F)NC3=O)c3ccccc3)C(=O)N2[C@H]1C(=O)O (stereo partly shown) | broth microdilution | PAO1 | with: 2,2'-bipyridyl 30 µg/mL and CCCP 50 µg/mL |  | 12.5 µg/mL
